# Published values pooled from the literature.
# Each line is one published result; not all experiments were run side by side. ± gives the spread as reported.
# Sequence of UniProt P14842 (whole entry, looked up): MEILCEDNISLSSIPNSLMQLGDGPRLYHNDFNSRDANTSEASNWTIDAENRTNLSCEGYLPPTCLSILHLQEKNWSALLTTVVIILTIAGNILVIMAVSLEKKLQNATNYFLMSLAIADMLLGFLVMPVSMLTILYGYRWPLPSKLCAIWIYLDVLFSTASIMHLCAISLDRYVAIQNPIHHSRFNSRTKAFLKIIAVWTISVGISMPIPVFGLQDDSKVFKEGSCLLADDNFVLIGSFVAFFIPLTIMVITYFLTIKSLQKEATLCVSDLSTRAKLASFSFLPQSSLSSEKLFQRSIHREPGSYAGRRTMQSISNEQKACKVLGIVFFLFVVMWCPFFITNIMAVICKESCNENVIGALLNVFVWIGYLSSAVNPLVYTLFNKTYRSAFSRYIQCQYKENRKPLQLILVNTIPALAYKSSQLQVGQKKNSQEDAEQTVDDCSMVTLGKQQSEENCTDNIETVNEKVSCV
Molecule,tested on,assay,system,conditions,scale,endpoint,result
Cc1ccccc1NC(=O)Nc1ccc(CC(=O)N[C@@H](CCCCNC(=O)/C=C/c2cccnc2)C(=O)N[C@@H](CCCC(=O)O)C(=O)NC2(C(=O)NCCOCCOCCOCCOCC(=O)N[C@@H](CCCCNC(=S)Nc3ccc(C[C@H]4CN(CC(=O)O)CCN(CC(=O)O)CCN4CC(=O)O)cc3)C(N)=O)CCCCC2)cc1 [fluorine-18 labelled],,,"female C57BL/6 mice, B16-F10 tumour, tumour and blood","intravenous, 2 h",reference: tumour over blood,tumour-to-blood ratio,5.1 ± 0.9
CN[C@@](C)(C[18F])C(=O)O,SK-OV-3 tumour model,,"host not given, heart","2 h, tumour-bearing",,tracer uptake,2.3 %ID/g
peginesatide,,ELISA,"healthy adults, plasma","intravenous bolus, 0.1 mg/kg",,Cmax,3330 ng/mL
N=C(N)NCCC[C@@H]1NC(=O)[C@H](CCCCNC(=O)[C@H](CC(=O)O)NC(=O)[C@H](CC(=O)O)NC(=O)[C@H](CC(=O)O)NC(=O)CC[C@H](NC(=O)CCOCCOCCOCCOCCNC(=O)c2ccc(NN)nc2)C(=O)N[C@@H](CC(=O)O)C(=O)N[C@@H](CC(=O)O)C(=O)N[C@@H](CC(=O)O)C(=O)NCCCC[C@@H]2NC(=O)[C@@H](Cc3ccccc3)NC(=O)[C@H](CC(=O)O)NC(=O)CNC(=O)[C@H](CCCNC(=N)N)NC2=O)NC(=O)[C@@H](Cc2ccccc2)NC(=O)[C@H](CC(=O)O)NC(=O)CNC1=O [technetium-99m labelled],,γ-counting,"female athymic nude mice, U-87 MG xenograft, intestine","intravenous, 0.5 h",,tissue uptake,6.58 ± 0.88 %ID/g
METAVAYYKDGVPYDDKGQVIITLLNGTPDGSGSGGGGGK (colicin E1 fragment 1–40; sequence looked up),,far-UV CD,"peptide, 50 mM sodium phosphate",,,helical content,0%
CNC(C)Cc1ccc2c(c1)OCO2 (racemic),,"visual analog scale, measured: Stimulated",human,"oral, 0.75 mg/kg, mean over session, unit not given",reference: pre-dose baseline,mood rating,19.2
COc1cccc2c1C(=O)c1c(O)c3c(c(O)c1C2=O)C[C@@](O)(C(=O)CO)C[C@@H]3O[C@H]1C[C@H](NC(=O)[C@@H]2CCCN2C(=O)CNC(=O)[C@H](CC(C)C)NC(=O)[C@H](C)NC(=O)CP(=O)(O)O)[C@H](O)[C@H](C)O1,,,"mouse, E0771 tumour-bearing, plasma","intravenous, 92 µmol/kg",,AUC,156 µM·h
CSCC[C@H](NC(=O)[C@H](CC(C)C)NC(=O)[C@H](Cc1cnc[nH]1)NC(=O)CNC(=O)[C@@H](NC(=O)[C@H](C)NC(=O)[C@H](Cc1c[nH]c2ccccc12)NC(=O)[C@H](CCC(N)=O)NC(=O)CCCCCCCNC(=O)CN1CCN(CC(=O)O)CCN(CC(=O)O)CCN(CC(=O)O)CC1)C(C)C)C(N)=O,,,"ICR SCID mouse (PC-3 tumour), urine and bladder contents","intravenous, 185 kBq, 4 h",,excreted dose,78.3 ± 4.22%
"CCN1C(=CC=CC=CC2=[N+](CCCCCC(=O)NCCCC[C@H](NC(=O)CN3CCN(CC(=O)O)CCN(CC(=O)O)CCN(CC(=O)O)CC3)C(=O)NCC(=O)NCC(=O)N[C@@H](Cc3ccc(O)cc3)C(=O)NCC(=O)N[C@H]3CSSC[C@@H]4NC(=O)CNC(=O)[C@H](C)NC(=O)[C@H](CC(C)C)NC(=O)[C@@H]5CSSC[C@@H](C(=O)NCC(N)=O)NC(=O)[C@H](Cc6ccccc6)NC(=O)CNC(=O)[C@H](CC(N)=O)NC(=O)[C@@H]6CCCN6C(=O)CNC(=O)[C@H](CSSC[C@H](NC(=O)[C@H](CO)NC(=O)[C@H]([C@@H](C)O)NC(=O)[C@@H]6CCCN6C(=O)[C@H](C)NC(=O)[C@H](Cc6c[nH]c7ccccc67)NC(=O)[C@H](CC(=O)O)NC(=O)CNC(=O)[C@H](CCCNC(=N)N)NC(=O)CNC(=O)[C@H](CCC(N)=O)NC(=O)[C@@H]6CCCN6C3=O)C(=O)N[C@@H](CO)C(=O)N[C@@H](CCC(N)=O)C(=O)N[C@@H](CC(=O)O)C(=O)N[C@@H](CO)C(=O)N[C@@H](CC(=O)O)C(=O)N5)NC(=O)[C@H](C(C)C)NC4=O)c3ccc4c(S(=O)(=O)[O-])cc(S(=O)(=O)O)cc4c3C2(C)C)C(C)(C)c2c1ccc1c(S(=O)(=O)O)cc(S(=O)(=O)O)cc21 (single isomer, unassigned) [copper-64 labelled]",,,"mouse, blood, tumour, liver, kidney","dose not given, 1 h",reference: total including insoluble pellet,radioactivity in soluble extract,50 to 80%
C[C@H]1CNCCc2ccc(Cl)cc21,,,"male Sprague-Dawley rat, plasma","subcutaneous, 0.5 mg/kg, 0 h, given alone",,plasma concentration,0 ng/mL
CC(C)C[C@@H]1NC(=O)[C@@H]2CSSC[C@@H](C(=O)NCC(N)=O)NC(=O)[C@H](Cc3ccccc3)NC(=O)CNC(=O)[C@H](CC(N)=O)NC(=O)[C@@H]3CCCN3C(=O)CNC(=O)[C@@H]3CSSC[C@H](NC(=O)[C@H]([C@@H](C)O)NC(=O)[C@H](CC(C)C)NC(=O)[C@@H]4CCCN4C(=O)[C@@H]4CCCN4C(=O)[C@H](CC(N)=O)NC(=O)[C@H](CC(=O)O)NC(=O)CNC(=O)[C@H](CCCNC(=N)N)NC(=O)[C@@H]4CCCN4C(=O)[C@H](CCCNC(=N)N)NC(=O)[C@@H]4CCCN4C(=O)[C@@H](NC(=O)CNC(=O)CN4CCN(CC(=O)O)CCN(CC(=O)O)CCN(CC(=O)O)CC4)CSSC[C@H](NC(=O)CNC(=O)[C@H](C)NC1=O)C(=O)N[C@@H](C(C)C)C(=O)N3)C(=O)N[C@@H](CO)C(=O)N[C@@H](CCC(N)=O)C(=O)N[C@@H](CC(=O)O)C(=O)N[C@@H](CO)C(=O)N[C@@H](CC(=O)O)C(=O)N2 [copper-64 labelled],,64Cu microPET,"female nude mice, U-87 MG xenograft, tumour","intravenous, 1 h",,tissue uptake,4.56 ± 0.64 %ID/g
[123I]c1cncc(OC[C@@H]2CCN2)c1,,SPECT,"human, temporal lobe","intravenous bolus plus infusion, 7.8 mCi",reference: plasma,tissue/plasma ratio,12.2
COc1cccc2c1C(=O)c1c(O)c3c(c(O)c1C2=O)C[C@@](O)(C(=O)CO)C[C@@H]3O[C@H]1C[C@H](NC(=O)[C@H](CC(C)C)NC(=O)[C@H](C)NC(=O)[C@H](CC(C)C)NC(=O)CCNC(=O)CCC(=O)O)[C@H](O)[C@H](C)O1,,,"mouse, E0771 tumour-bearing, kidney","intravenous, 92 µmol/kg",,Tmax,15 min
N=C(N)NCCC[C@@H]1NC(=O)[C@H](CCCCNC(=O)CNC(=O)CNC(=O)CNC(=O)CC[C@H](NC(=O)CCOCCOCCOCCOCCNC(=O)c2ccc(NN)nc2)C(=O)NCC(=O)NCC(=O)NCC(=O)NCCCC[C@@H]2NC(=O)[C@@H](Cc3ccccc3)NC(=O)[C@H](CC(=O)O)NC(=O)CNC(=O)[C@H](CCCNC(=N)N)NC2=O)NC(=O)[C@@H](Cc2ccccc2)NC(=O)[C@H](CC(=O)O)NC(=O)CNC1=O [technetium-99m labelled],,γ-counting,"female athymic nude mice, U-87 MG xenograft, heart","intravenous, 0.5 h",,tissue uptake,1.79 ± 0.11 %ID/g
CCc1c2c(nc3ccc(OC(=O)[C@H]4CC[C@H](CNC(=O)[C@H]5CC[C@H](CN6C(=O)CC(SC[C@H](N)C(=O)N[C@H](C(=O)N[C@@H](CCCCN)C(=O)N[C@@H](CCCNC(=N)N)C(=O)NCC(=O)N[C@@H](CC(C)C)C(=O)N[C@@H](CCCCN)C(=O)N[C@@H](CC(C)C)C(=O)N[C@@H](CCCNC(=N)N)C(=O)N[C@@H](Cc7c[nH]cn7)C(=O)N[C@H](C(=O)N[C@@H](CCCNC(=N)N)C(=O)N7CCC[C@H]7C(=O)N[C@@H](CCCNC(=N)N)C(=O)N[C@H](C(=O)N[C@H](C(=O)N[C@@H](CCCNC(=N)N)C(=O)N[C@@H](CCSC)C(=O)N[C@@H](CC(=O)O)C(=O)N[C@H](C(=O)O)C(C)C)[C@@H](C)O)C(C)C)C(C)C)C(C)C)C6=O)CC5)CC4)cc13)-c1cc3c(c(=O)n1C2)COC(=O)[C@]3(O)CC (stereo partly shown),,,"human, cancer patients",phase I trial,,dose with infusion reactions,> 75 mg/m²
CC(=O)N(O)CCCCCNC(=O)CCC(=O)N(O)CCCCCNC(=O)CCC(=O)N(O)CCCCCNC(=S)Nc1ccc(NC(=S)NCCOCCOCCOCCOCCC(=O)N[C@@H](CCC(=O)NCCOCCOCCOCCOCCC(=O)NCCCC[C@@H]2NC(=O)[C@@H](Cc3ccccc3)NC(=O)[C@H](CC(=O)O)NC(=O)CNC(=O)[C@H](CCCNC(=N)N)NC2=O)C(=O)NCCOCCOCCOCCOCCC(=O)NCCCC[C@@H]2NC(=O)[C@@H](Cc3ccccc3)NC(=O)[C@H](CC(=O)O)NC(=O)CNC(=O)[C@H](CCCNC(=N)N)NC2=O)cc1 [zirconium-89 labelled],,,"athymic nude mice female tumour-bearing, tumor","intravenous, 100 µCi, 4 h",,tissue uptake,3.94 ± 0.38 %ID/g
CCCCCCCCCCCCCCCC(=O)N[C@H](CSC1CC(=O)N(CCC(=O)NCCOCCOCCOCCOCCOCCOCCOCCOCCOCCOCCOCCOCCOCCOCCOCCOCCOCCOCCOCCOCCOCCOCCOCCOCCC(=O)NC(COCCC(=O)NCCOCCOCCOCCOCCC(=O)NCCCC[C@@H](NC(=O)CNC(=O)[C@@H](CC(C)C)NC(=O)[C@@H](CCC(=O)O)NC(=O)[C@H]2CSSC[C@@H](NC(=O)[C@H]3CCCN3C(=O)[C@@H](Cc3c[nH]cn3)NC(C)=O)C(=O)N[C@H](CC(=O)O)C(=O)N[C@H](Cc3ccc(O)cc3)C(=O)N3CCC[C@@H]3C(=O)N[C@H](CCC(=O)O)C(=O)N[C@H](Cc3c[nH]c4ccccc34)C(=O)N[C@H](CCC(N)=O)C(=O)N[C@H](Cc3c[nH]c4ccccc34)C(=O)N[C@H](CC(C)C)C(=O)N2)C(N)=O)(COCCC(=O)NCCOCCOCCOCCOCCC(=O)NCCCC[C@@H](NC(=O)CNC(=O)[C@@H](CC(C)C)NC(=O)[C@@H](CCC(=O)O)NC(=O)[C@H]2CSSC[C@@H](NC(=O)[C@H]3CCCN3C(=O)[C@@H](Cc3c[nH]cn3)NC(C)=O)C(=O)N[C@H](CC(=O)O)C(=O)N[C@H](Cc3ccc(O)cc3)C(=O)N3CCC[C@@H]3C(=O)N[C@H](CCC(=O)O)C(=O)N[C@H](Cc3c[nH]c4ccccc34)C(=O)N[C@H](CCC(N)=O)C(=O)N[C@H](Cc3c[nH]c4ccccc34)C(=O)N[C@H](CC(C)C)C(=O)N2)C(N)=O)COCCC(=O)NCCOCCOCCOCCOCCC(=O)NCCCC[C@@H](NC(=O)CNC(=O)[C@@H](CC(C)C)NC(=O)[C@@H](CCC(=O)O)NC(=O)[C@H]2CSSC[C@@H](NC(=O)[C@H]3CCCN3C(=O)[C@@H](Cc3c[nH]cn3)NC(C)=O)C(=O)N[C@H](CC(=O)O)C(=O)N[C@H](Cc3ccc(O)cc3)C(=O)N3CCC[C@@H]3C(=O)N[C@H](CCC(=O)O)C(=O)N[C@H](Cc3c[nH]c4ccccc34)C(=O)N[C@H](CCC(N)=O)C(=O)N[C@H](Cc3c[nH]c4ccccc34)C(=O)N[C@H](CC(C)C)C(=O)N2)C(N)=O)C1=O)C(=O)O (stereo partly shown),,,Sprague Dawley rat,"subcutaneous vs intravenous, 1.2 mg/kg",,bioavailability,103%
c1ccc(CCN2CCCCC2)cc1,"5-hydroxytryptamine receptor 2A (Rattus norvegicus, UniProt P14842)","ligand displacement, radioligand",,,,Ki,> 10 µM
melittin,,"membrane partitioning, CD van't Hoff analysis",POPC/POPG LUVs 50:50%,"concentration not given, 5 to 60 °C",,heat capacity change,-0.33 kcal/mol/K

# For quick reference, copied from above:
Molecule,tested on,assay,system,conditions,scale,endpoint,result
CN[C@@](C)(C[18F])C(=O)O,SK-OV-3 tumour model,,"host not given, heart","2 h, tumour-bearing",,tracer uptake,2.3 %ID/g
C[C@H]1CNCCc2ccc(Cl)cc21,,,"male Sprague-Dawley rat, plasma","subcutaneous, 0.5 mg/kg, 0 h, given alone",,plasma concentration,0 ng/mL
